{"data": "Assay results of several laboratories", "note": "Each numbered part is a random draw from the data of one study; scales do not carry over between parts. Several values in a cell are separate wells, animals, samples, runs or records.", "chain of UniProt Q2M2I8 (whole entry, looked up)": "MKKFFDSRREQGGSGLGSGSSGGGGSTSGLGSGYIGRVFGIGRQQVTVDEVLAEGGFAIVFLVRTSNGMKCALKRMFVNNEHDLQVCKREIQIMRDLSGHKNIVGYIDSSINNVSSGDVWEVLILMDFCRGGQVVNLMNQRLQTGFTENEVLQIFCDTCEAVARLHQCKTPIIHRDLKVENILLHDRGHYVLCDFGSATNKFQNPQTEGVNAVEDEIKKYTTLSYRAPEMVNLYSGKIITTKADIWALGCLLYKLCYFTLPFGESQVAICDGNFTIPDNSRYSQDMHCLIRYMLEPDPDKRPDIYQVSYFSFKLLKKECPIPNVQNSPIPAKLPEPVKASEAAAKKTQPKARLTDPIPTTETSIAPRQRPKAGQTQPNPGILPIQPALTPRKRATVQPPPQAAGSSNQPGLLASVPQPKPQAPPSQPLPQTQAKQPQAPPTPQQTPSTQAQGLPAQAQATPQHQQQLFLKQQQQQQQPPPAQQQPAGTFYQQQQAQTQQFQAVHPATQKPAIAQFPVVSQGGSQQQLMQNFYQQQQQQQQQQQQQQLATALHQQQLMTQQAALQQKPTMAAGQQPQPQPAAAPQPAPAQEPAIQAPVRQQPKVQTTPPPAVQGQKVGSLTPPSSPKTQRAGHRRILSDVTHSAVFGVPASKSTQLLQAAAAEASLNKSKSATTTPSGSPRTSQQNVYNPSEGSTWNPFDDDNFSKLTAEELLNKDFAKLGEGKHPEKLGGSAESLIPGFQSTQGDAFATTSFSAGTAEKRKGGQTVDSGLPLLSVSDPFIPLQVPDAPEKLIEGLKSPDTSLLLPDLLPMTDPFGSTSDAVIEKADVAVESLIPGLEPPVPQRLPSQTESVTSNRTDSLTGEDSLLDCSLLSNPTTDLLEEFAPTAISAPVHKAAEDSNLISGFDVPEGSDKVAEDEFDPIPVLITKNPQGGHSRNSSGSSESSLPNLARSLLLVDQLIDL"}
{"data": "Study 1", "organism": "Plasmodium berghei", "mode": "inhibitor", "cell line": "Huh-7", "strain": "GFP-expressing, liver stage", "concentration": "10 µM", "time": "24 h", "reference": "untreated control"}
{"Structure (SMILES)": "OCc1ccccc1O", "infection rate [%]": 101}
{"Structure (SMILES)": "C[C@@H]1O[C@@H](OC[C@H]2O[C@@H](Oc3c(-c4ccc(O)c(O)c4)oc4cc(O)cc(O)c4c3=O)[C@H](O)[C@@H](O)[C@@H]2O)[C@H](O)[C@H](O)[C@H]1O", "infection rate [%]": 102}
{"Structure (SMILES)": "Nc1ccc(C(=O)Oc2ccccc2)c(O)c1", "infection rate [%]": 102}
{"Structure (SMILES)": "CN(C)CCc1c[nH]c2ccc(Cn3cncn3)cc12", "infection rate [%]": 117}
{"Structure (SMILES)": "OCCN1CCN(CCCN2c3ccccc3Sc3ccc(Cl)cc32)CC1", "infection rate [%]": 37}
{"Structure (SMILES)": "C=CCCCCCCCCC(=O)O", "infection rate [%]": 78.4}
{"Structure (SMILES)": "C#C[C@]1(OC(C)=O)CC[C@H]2[C@@H]3CCC4=CC(=NO)CC[C@@H]4[C@H]3CC[C@@]21CC (mixture of isomers)", "infection rate [%]": 16.4}
{"Structure (SMILES)": "Nc1c2c(nc3ccccc13)CCCC2", "infection rate [%]": 52.9}
{"Structure (SMILES)": "CCN1CCN(C(=O)N[C@@H](C(=O)N[C@@H]2C(=O)N3[C@@H]2SC(C)(C)[C@@H]3C(=O)O)c2ccccc2)C(=O)C1=O", "infection rate [%]": 98}
{"Structure (SMILES)": "OCc1cccnc1", "infection rate [%]": 97.4}
{"Structure (SMILES)": "CC(C)(S)[C@@H](N)C(=O)O", "infection rate [%]": 90.2}
{"Structure (SMILES)": "OCCc1ccccc1", "infection rate [%]": 95.3}
{"Structure (SMILES)": "CC(C)(C)NC[C@H](O)COc1nsnc1N1CCOCC1", "infection rate [%]": 96}
{"Structure (SMILES)": "O=C(Oc1ccccc1C(=O)O)c1ccccc1O", "infection rate [%]": 119}
{"Structure (SMILES)": "CCN(CC)CCOC(=O)c1ccc(N)cc1", "infection rate [%]": 83.9}
{"Structure (SMILES)": "c1ccc2[nH]c(-c3cscn3)nc2c1", "infection rate [%]": 90.7}
{"Structure (SMILES)": "CC(=O)OCC(=O)[C@@]1(O)CC[C@H]2[C@@H]3CCC4=CC(=O)C=C[C@]4(C)[C@H]3[C@@H](O)C[C@@]21C", "infection rate [%]": 110}
{"Structure (SMILES)": "CN1CCCN=C1COC(=O)C(O)(c1ccccc1)C1CCCCC1 (stereo not drawn)", "infection rate [%]": 91.6}
{"Structure (SMILES)": "O=c1[nH]c(=O)n([C@H]2C[C@H](O)[C@@H](CO)O2)cc1C(F)(F)F", "infection rate [%]": 81.8}
{"Structure (SMILES)": "OC(CCN1CCCCC1)(c1ccccc1)C1CCCCC1 (stereo not drawn)", "infection rate [%]": 95}
{"data": "Study 2", "species": "mouse", "matrix": "microsomes or S9", "concentration": "2 µM", "time": "0.5 h"}
{"Compound": "Cc1cc2c(cc3c(NCc4ccccc4F)nnc(C)n32)s1", "remaining compound": "2.84%"}
{"Compound": "Cc1ccc(CN2CCC=C(CCC(=O)O)C2=O)cc1", "remaining compound": "99.9%"}
{"Compound": "CC1(C)Cc2nc(N3CCCC3)c(C#N)cc2CO1", "remaining compound": "0.677%"}
{"Compound": "Cc1ccc(N2C(=O)c3n[nH]c(C)c3C2c2ccco2)cc1 (stereo not drawn)", "remaining compound": "18%"}
{"Compound": "Cc1cccc(CN(CCN2CCOCC2)CC(O)COc2ccc(Cl)cc2)c1 (stereo not drawn)", "remaining compound": "22.5%"}
{"Compound": "N#Cc1cccc(Nc2cccc3c2CN(c2cccc(C(=O)O)c2)C3=O)c1", "remaining compound": "61.4%"}
{"Compound": "Cc1ccc(-n2nc(C)c3c2CC(c2ccco2)CC3=O)cc1 (stereo not drawn)", "remaining compound": "21%"}
{"Compound": "Cc1cc2oc(-c3ccsc3)c(CC(=O)O)c2c(=O)[nH]1", "remaining compound": "> 99.9%"}
{"Compound": "Cc1cccc(-n2ccnc2S(=O)(=O)C(C)C(=O)N(C(C)C)C(C)C)c1 (stereo not drawn)", "remaining compound": "< 1%"}
{"Compound": "O=C(CCS(=O)(=O)c1ccccc1)N(Cc1cccnc1)c1nc2ccc(Cl)cc2s1", "remaining compound": "27.6%"}
{"data": "Study 3", "SMILES": "CC(=O)N[C@@H](Cc1c[nH]c2ccccc12)C(=O)N[C@@H](CCC(=O)C=[N+]=[N-])C(=O)OC(C)C"}
{"species": "mouse, EL4 tumour", "route": "subcutaneous", "dose": "1 mg/kg", "time": "day 11", "tumour volume": "156 mm3 and 32.3 mm3 and 28.8 mm3 and 298 mm3 and 0 mm3 and 311 mm3"}
{"species": "mouse, EL4 tumour", "route": "subcutaneous", "dose": "0.1 mg/kg", "time": "day 7", "tumour volume": "564 mm3 and 400 mm3 and 471 mm3 and 389 mm3 and 896 mm3 and 450 mm3"}
{"species": "mouse, EL4 tumour", "route": "subcutaneous", "dose": "1 mg/kg", "time": "day 17", "tumour volume": "0 mm3"}
{"species": "mice, MC-38 tumour rechallenge", "dose": "0.26 mg/kg", "time": "day 35 after injection", "tumour volume": "0 mm3"}
{"species": "mice, MC-38 tumour rechallenge", "dose": "1 mg/kg", "time": "day 39 after injection", "tumour volume": "0 mm3"}
{"species": "mice, MC-38 tumour rechallenge", "dose": "0.26 mg/kg", "time": "day 67 after injection", "tumour volume": "0 mm3"}
{"species": "mice, MC-38 tumour rechallenge", "dose": "1 mg/kg", "time": "day 57 after injection", "tumour volume": "0 mm3"}
{"species": "mice, MC-38 tumour rechallenge", "dose": "0.26 mg/kg", "time": "day 18 after injection", "tumour volume": "0 mm3"}
{"species": "C57BL/6 CES1-/- mouse, EL4 tumour", "route": "intravenous", "dose": "1 mg/kg DON equivalent", "time": "treatment day 14", "notes": "5 days per week", "tumour volume": "142 mm3 and 137 mm3 and 0 mm3 and 177 mm3 and 176 mm3 and 243 mm3 and 184 mm3 and 96 mm3"}
{"species": "mouse, EL4 tumour", "route": "subcutaneous", "dose": "1 mg/kg", "time": "day 9", "tumour volume": "107 mm3 and 447 mm3 and 215 mm3 and 220 mm3 and 316 mm3 and 261 mm3"}
{"data": "Further values, each from its own experiment"}
{"Compound": "Cn1cncc1[C@@](O)(COc1ccc(C#N)cc1-c1ccc(OC(F)(F)F)cc1)c1ccc(C#N)cc1", "tested on": "HEK293T", "method": "high-content imaging", "concentration": "10 µM", "time": "24 h", "quantity": "mitotic cells", "value": "87.9%"}
{"Compound": "C[C@H](NC(=O)Nc1cc2[nH]ncc2c(CO)n1)c1ccccn1", "tested on": "AAK1 (Homo sapiens, UniProt Q2M2I8)", "read-out": "binding", "concentration": "1 µM", "quantity": "remaining binding", "value": "100%"}
{"note": "Some of these lines once more (study 3):"}
{"species": "mice, MC-38 tumour rechallenge", "dose": "0.26 mg/kg", "time": "day 35 after injection", "tumour volume": "0 mm3"}
{"species": "mice, MC-38 tumour rechallenge", "dose": "1 mg/kg", "time": "day 39 after injection", "tumour volume": "0 mm3"}
{"species": "mice, MC-38 tumour rechallenge", "dose": "0.26 mg/kg", "time": "day 67 after injection", "tumour volume": "0 mm3"}
{"species": "mice, MC-38 tumour rechallenge", "dose": "1 mg/kg", "time": "day 57 after injection", "tumour volume": "0 mm3"}
{"species": "mice, MC-38 tumour rechallenge", "dose": "0.26 mg/kg", "time": "day 18 after injection", "tumour volume": "0 mm3"}
{"species": "C57BL/6 CES1-/- mouse, EL4 tumour", "route": "intravenous", "dose": "1 mg/kg DON equivalent", "time": "treatment day 14", "notes": "5 days per week", "tumour volume": "142 mm3 and 137 mm3 and 0 mm3 and 177 mm3 and 176 mm3 and 243 mm3 and 184 mm3 and 96 mm3"}
